Assay results pooled from the literature.
Protocols differ between the studies behind these lines. ± marks the error that the study gave.

CCCC[C@H](NC(=O)CNC(=O)CNC(=O)[C@H](CCCCNC(=O)[C@H](CC(=O)O)NC(=O)C(C)c1ccc(CC(C)C)cc1)NC(=O)CN1CCN(CC(=O)O)CCN(CC(=O)O)CCN(CC(=O)O)CC1)C(=O)N[C@H]1CC(=O)NCCCC[C@@H](C(N)=O)NC(=O)[C@H](Cc2c[nH]c3ccccc23)NC(=O)[C@H](CCCNC(=N)N)NC(=O)[C@@H](Cc2ccccc2)NC(=O)[C@H](Cc2c[nH]cn2)NC1=O (stereo partly shown) [lutetium-177 labelled] — tissue uptake (C57 mice, tumour-bearing, pancreas; intravenous, 0.037 MBq, 24 h): 0.24 ± 0.05 %ID/g
COc1ccc(Nc2nc(Nc3ccc(OCCOCCOCC[18F])cc3)ncc2Br)cc1 — tissue uptake (ICR mice, S180 tumour-bearing, liver; intravenous, 370 kBq, 15 min): 4.65 ± 0.28 %ID/g
O=C(NCC1OC2CCC=CCCC2O1)c1ccc(COCCOCCOCC[18F])cc1 (stereo not shown) — tissue uptake (healthy female BALB/c nude mice, blood; intravenous, 7.4 MBq per mouse, 120 min): 2.7 ± 0.2 %ID/g
COc1ccc(Nc2nc(Nc3ccc(OCCOCC[18F])cc3)ncc2Br)cc1 — tissue uptake (ICR mice, S180 tumour-bearing, heart; intravenous, 370 kBq, 120 min): 2.61 ± 0.25 %ID/g
O=C(NCC1OC2CCC=CCCC2O1)c1ccc([18F])nc1 (stereo not shown) — tissue uptake (female BALB/c nude mice, LS174T tumour, tumor; intravenous, 60 min, added: CC49-tetrazine 24 h before): 1.4 ± 0.3 %ID/g
CCCC[C@H](NC(=O)CCCCCCCNC(=O)CN1CCN(CC(=O)O)CCN(CC(=O)O)CC1)C(=O)N[C@H]1CC(=O)NCCCC[C@@H](C(N)=O)NC(=O)[C@H](Cc2c[nH]c3ccccc23)NC(=O)[C@H](CCCNC(=N)N)NC(=O)[C@@H](Cc2ccccc2)NC(=O)[C@H](Cc2c[nH]cn2)NC1=O [fluorine-18 labelled] — tissue uptake (C57 mice B16-F10 melanoma, pancreas; intravenous, 0.37 MBq, 1 h): 0.06 ± 0.11 %ID/g
COc1ccc2c(c1)C(C)(C)C(/C=C/C1=C(Oc3ccc(C(=O)NCCCCOc4cc(CN(Cc5ccccn5)Cc5ccccn5)cc(CN(Cc5ccccn5)Cc5ccccn5)c4)cc3)C(=C/C=C3/N(CCCCS(=O)(=O)[O-])c4ccc(OC)cc4C3(C)C)CCC1)=[N+]2CCCCS(=O)(=O)[O-].O=[N+]([O-])[O-].O=[N+]([O-])[O-].[99Tc+].[C-]#[O+].[C-]#[O+].[C-]#[O+].[Zn+2] — tissue uptake (BALB/c mice, S. aureus myositis, spleen; 12 h post-injection): 9.42 %ID/g
O=C([O-])CN1CCN(CC(=O)[O-])CCN(CC(=O)NC[C@H]2CC[C@H](C(=O)N[C@H](Cc3cnc4ccccc4c3)C(=O)NCCCC[C@H](NC(=O)N[C@@H](CCC(=O)O)C(=O)O)C(=O)O)CC2)CCN(CC(=O)[O-])CC1.[64Cu+2] — tissue uptake (ex vivo gamma counting; 22Rv1 tumour-bearing mice, intestine; intravenous, 0.74 MBq, 2 h post-injection): 22.1 %ID/g
Cc1cc(C)n(CCN(CCN)CCCCCCNC(=O)[C@@H](N)Cc2c[nH]c3ccccc23)n1.[99Tc+].[C-]#[O+].[C-]#[O+].[C-]#[O+] — tissue uptake (BALB/c nude mice, A549 xenograft, bone; intravenous, 4 h): 0.22 ± 0.02 %IA/g
N#C[C@@H]1CCCN1C(=O)CNC(=O)c1ccnc2ccc(OCCCN3CCN(C(=O)CCc4ccc5c(c4)CN4CCN6CC(=O)[O][68Ga-]([O]C(=O)C4)([O]5)[O]c4ccc(CCC(=O)N5CCN(CCCOc7ccc8nccc(C(=O)NCC(=O)N9CCC[C@H]9C#N)c8c7)CC5)cc4C6)CC3)cc12 — tissue uptake (BALB/c nude mice, U-87 MG xenograft, intestine; 1 h, blocking, added: DOTA-FAPI-04 40 nmol/mouse co-injected): 6.12 ± 2.06 %ID/g
Cc1cc(C)n(CCN(CCN)CCCCCCNC(=O)[C@@H](N)Cc2c[nH]cn2)n1.[99Tc+].[C-]#[O+].[C-]#[O+].[C-]#[O+] — tissue uptake (BALB/c nude mice, MCF7 xenograft, pancreas; intravenous, 4 h): 0.44 ± 0.09 %IA/g
CCCC[C@H](NC(=O)COCCOCCNC(=O)CN1CCN(CC(=O)O)CCN(CC(=O)O)CC1)C(=O)N[C@H]1CC(=O)NCCCC[C@@H](C(N)=O)NC(=O)[C@H](Cc2c[nH]c3ccccc23)NC(=O)[C@H](CCCNC(=N)N)NC(=O)[C@@H](Cc2ccccc2)NC(=O)[C@H](Cc2c[nH]cn2)NC1=O [fluorine-18 labelled] — tissue uptake (C57 mice B16-F10 melanoma, tumor; intravenous, 0.37 MBq, 1 h): 17.4 ± 0.76 %ID/g
CC(C)C[C@H](NC(=O)[C@@H](CCCCNC(=O)[C@@H](Cc1ccccc1)NC(=O)CCCCCCCNC(=O)CN1CCN(CC(=O)O)CCN(CC(=O)O)CCN(CC(=O)O)CC1)NC(=O)[C@H](Cc1ccc(O)cc1)NC(=O)[C@H](CO)NC(=O)[C@H](Cc1c[nH]c2ccccc12)NC(=O)[C@H](Cc1c[nH]cn1)NC(=O)[C@@H]1CCC(=O)N1)C(=O)N[C@@H](CCCNC(=N)N)C(=O)N1CCC[C@H]1C(=O)NCC(N)=O [indium-111 labelled] — tissue uptake (biodistribution; male athymic nude mice, DU-145 prostate cancer xenograft, brain; intravenous, 0.037 MBq, 0.5 h post-injection): 0.09 ± 0.04 %ID/g

Repeated from above:
CCCC[C@H](NC(=O)COCCOCCNC(=O)CN1CCN(CC(=O)O)CCN(CC(=O)O)CC1)C(=O)N[C@H]1CC(=O)NCCCC[C@@H](C(N)=O)NC(=O)[C@H](Cc2c[nH]c3ccccc23)NC(=O)[C@H](CCCNC(=N)N)NC(=O)[C@@H](Cc2ccccc2)NC(=O)[C@H](Cc2c[nH]cn2)NC1=O [fluorine-18 labelled] — tissue uptake (C57 mice B16-F10 melanoma, tumor; intravenous, 0.37 MBq, 1 h): 17.4 ± 0.76 %ID/g
CC(C)C[C@H](NC(=O)[C@@H](CCCCNC(=O)[C@@H](Cc1ccccc1)NC(=O)CCCCCCCNC(=O)CN1CCN(CC(=O)O)CCN(CC(=O)O)CCN(CC(=O)O)CC1)NC(=O)[C@H](Cc1ccc(O)cc1)NC(=O)[C@H](CO)NC(=O)[C@H](Cc1c[nH]c2ccccc12)NC(=O)[C@H](Cc1c[nH]cn1)NC(=O)[C@@H]1CCC(=O)N1)C(=O)N[C@@H](CCCNC(=N)N)C(=O)N1CCC[C@H]1C(=O)NCC(N)=O [indium-111 labelled] — tissue uptake (biodistribution; male athymic nude mice, DU-145 prostate cancer xenograft, brain; intravenous, 0.037 MBq, 0.5 h post-injection): 0.09 ± 0.04 %ID/g
